Measured values of several laboratories.
Every numbered part comes from another study and shows a few of its results, in no order. ± gives the spread as reported. In brackets after ≈: the same amount, converted by molar mass.
Chain of UniProt P49137 (whole entry, looked up): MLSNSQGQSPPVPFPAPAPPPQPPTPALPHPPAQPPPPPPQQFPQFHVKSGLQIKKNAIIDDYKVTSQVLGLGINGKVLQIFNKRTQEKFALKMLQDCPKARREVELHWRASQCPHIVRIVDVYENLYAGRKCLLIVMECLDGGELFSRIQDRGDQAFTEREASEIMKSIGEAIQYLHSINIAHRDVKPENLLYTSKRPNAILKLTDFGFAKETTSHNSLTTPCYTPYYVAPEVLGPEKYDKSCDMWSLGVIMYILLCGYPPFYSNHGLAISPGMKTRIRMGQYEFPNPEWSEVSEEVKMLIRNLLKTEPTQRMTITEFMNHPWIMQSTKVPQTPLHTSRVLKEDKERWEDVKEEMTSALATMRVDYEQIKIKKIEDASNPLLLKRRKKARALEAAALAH

Set 1
Target: mushroom tyrosinase
Effect on: enzyme activity
Concentration: 40 µM
Added: L-DOPA
Endpoint: inhibition
Compound = COc1cc(-c2nc3ccccc3c(=O)n2Nc2ccc([N+](=O)[O-])cc2[N+](=O)[O-])ccc1OCc1cn(CC(=O)NCc2ccccc2)nn1; value = 48.26 ± 0.31%
Compound = COc1cc(-c2nc3ccccc3c(=O)n2Nc2ccc([N+](=O)[O-])cc2[N+](=O)[O-])ccc1OCc1cn(CC(=O)Nc2ccc([N+](=O)[O-])cc2)nn1; value = 41.8 ± 0.79%
Compound = CCc1ccc(NC(=O)Cn2cc(COc3ccc(-c4nc5ccccc5c(=O)n4Nc4ccc([N+](=O)[O-])cc4[N+](=O)[O-])cc3OC)nn2)cc1; value = 58.7 ± 7.51%

Single results of other studies
Structure (SMILES) = O=C(Nc1cc(-c2ccc(Cl)cc2)[nH]n1)C1CCCCC1; tested on = MAPKAPK2 (Homo sapiens, UniProt P49137); test = enzyme activity, Dundee kinase panel; setting = 10 µM; endpoint = remaining activity; value = 97%
Structure (SMILES) = Nc1nn2c(-c3ccc(Cl)cc3Cl)cc(-c3ccc(OCc4ccccc4)cc3)nc2c1N=Nc1ccc(F)cc1; tested on = Enterococcus faecalis; test = broth microdilution; system = MTCC 0459; endpoint = MIC; value = 31.3 µg/mL (≈ 53.6 µM)
Structure (SMILES) = O=C(O)c1cn(Cc2ccc(C(F)(F)F)cc2)c2ccc(Oc3ccccc3)cc2c1=O; tested on = MCF7; setting = 72 h; endpoint = CC50; value = 79 ± 8.63 µM
Structure (SMILES) = CCOc1c([C@H](C)n2nc(C)c3c(N)ncnc32)cc(Cl)c(F)c1[C@@H]1CNC(=O)C1; system = patients with B-cell malignancies, plasma; setting = oral, 30 mg, day 15, monotherapy; endpoint = half-life; value = 9.4 ± 2 h
Structure (SMILES) = COc1ccc(N=Nc2c(N)nn3c(-c4ccco4)cc(-c4ccc(OCc5ccccc5)cc4)nc23)cc1; tested on = Bacillus pumilus; test = broth microdilution; system = MTCC 2296; endpoint = MBC; value = 62.5 µg/mL (≈ 121 µM)
Structure (SMILES) = O=C(O)c1c[nH]c2ccc(Oc3ccccc3)cc2c1=O; tested on = MDA-MB-231; setting = 72 h; endpoint = CC50; value = 91.36 ± 0.11 µM

A few entries again (single results of other studies):
Structure (SMILES) = O=C(O)c1c[nH]c2ccc(Oc3ccccc3)cc2c1=O; tested on = MDA-MB-231; setting = 72 h; endpoint = CC50; value = 91.36 ± 0.11 µM
